Measured values from different studies.
Protocols differ between the studies behind these lines. Numbers after ± are the reported error.
SLC10A2: Ileal sodium/bile acid cotransporter (SLC10A2, Homo sapiens, UniProt Q12908)
ESR1: Estrogen receptor (ESR1, Homo sapiens, UniProt P03372)
ALB: Albumin (ALB, Homo sapiens, UniProt P02768)

C=C1CN(S(=O)(=O)c2ccc(C)cc2)CCCN(Cc2ccccc2)CCCN(S(=O)(=O)c2ccc(C)cc2)C1
protein level ratio (Sortilin (Homo sapiens, UniProt Q99523); SILAC mass spectrometry; SUP-T1, crude membrane fraction; 10 µM, 17 h, forward labelling; reference: DMSO over compound): 2.07

C[C@H](N)C(=O)N[C@@H](CCCNC(=N)N)C(=O)N[C@H](C(=O)N[C@@H](CCCC[N+](C)(C)C)C(=O)N[C@@H](CCC(N)=O)C(=O)N[C@H](C(=O)N[C@@H](C)C(=O)N[C@@H](CCCNC(=N)N)C(=O)N[C@@H](CCCCN)C(=O)N[C@@H](CO)C(=O)N[C@H](C(=O)NCC(=O)NCC(=O)N[C@@H](CCCCN)C(=O)N[C@@H](C)C(=O)N[C@@H](CCCCNC(=O)c1ccc2c(c1)C(=O)OC21c2ccc(O)cc2Oc2cc(O)ccc21)C(N)=O)[C@@H](C)O)[C@@H](C)O)[C@@H](C)O
binding free energy (Inhibitor of growth protein 1, PHD finger (ING1, Homo sapiens, UniProt Q9UK53); fluorescence polarisation; 25 °C, together with: H3K4me3 peptide): -6.52 ± 0.167 kcal/mol

COc1cc(-c2cnc3nc2NCCCNS(=O)(=O)c2cccc(c2)N3)ccc1F
thermal shift ΔTm (EPHB3 (Homo sapiens, UniProt P54753); differential scanning fluorimetry; 10 µM; higher = stronger binding): 5.6 K

O=C1CCC(N2C(=O)c3ccc(N4CCC(C(=O)N5CCC(CCN6CCC(CNC(=O)c7cccc(-c8noc(C(F)(F)F)n8)c7)(c7nc(-c8ccccc8)cs7)CC6)CC5)CC4)cc3C2=O)C(=O)N1 (stereo not drawn)
degradation (HDAC7 (Homo sapiens, UniProt Q8WUI4); degrader, western blot; DHL6; 1 µM, 24 h): > 85%

CC1=C(/C=C/C(C)=C\C=C\C(C)=C\C=O)C(C)(C)CCC1
cell surface expression (Rhodopsin (RHO, Homo sapiens, UniProt P08100, P23H); pharmacological chaperone, immunostaining, nonpermeabilized cells; 661W; 2.5 µM, 16 h; reference: untreated cells): ~3 fold

C[C@H](CCC(=O)N[C@@H](CCC(=O)Nc1ccc(F)nc1)C(=O)O)[C@H]1CC[C@H]2[C@@H]3[C@H](O)C[C@@H]4C[C@H](O)CC[C@]4(C)[C@H]3CC[C@]12C
normalized Jmax/Kt (SLC10A2; transport efficiency, substrate, LC-MS/MS; ASBT-MDCK): 0.0262 µM⁻¹

CN1CCN(CC(=O)N2N=C3/C(=C/c4ccccc4)CCCC3C2c2ccccc2)CC1 (mixture of isomers)
initial rate increase (ALOX15 (Homo sapiens, UniProt P16050); activator; 10 µM, together with: arachidonic acid 100 µM; reference: no activator): 30%

N[C@@H](CCC(=O)N[C@@H](CS[Se]Cc1ccc(-c2cccc(C(O)c3ccc(Cl)c(Cl)c3)c2)cc1)C(=O)NCC(=O)O)C(=O)O (stereo partly drawn)
selectivity ratio (PTPN1 (Homo sapiens, UniProt P18031); enzyme activity; together with: pNPP, GSH 1 mM; reference: IC50 PTPN1 over STEP): 27

CC(=O)N[C@H]1[C@@H](OP(=O)(O)OP(=O)(O)OC[C@H]2O[C@@H](n3ccc(=O)[nH]c3=O)[C@H](O)[C@@H]2O)O[C@H](CO)[C@H](O)[C@@H]1O
kon (ABO (Homo sapiens, UniProt P16442, G235S/G268A/L266M/R176G); binding, NMR): 150000 M⁻¹ s⁻¹

CCCn1c(=O)c2[nH]c(-c3ccc(OCC(=O)NCCNC(=O)CCCCCCCNS(=O)(=O)c4cccc5c(N(C)C)cccc45)cc3)nc2n(CCC)c1=O
inverse agonist response (ADORA1 (Homo sapiens, UniProt P30542); CRE reporter gene, inverse agonist; CHO-A1; concentration not given, together with: forskolin; reference: forskolin alone): 1.2 ± 0.03 fold increase

CCC(=C(c1ccc(O)cc1)c1ccc(OCCN(C)CCOCCOCCOCCOCCOCCOCCOCCOCCOCCOCCN(C)CCOc2ccc(C(=C(CC)c3ccccc3)c3ccc(O)cc3)cc2)cc1)c1ccccc1 (mixture of isomers)
relative binding affinity (ESR2 (Homo sapiens, UniProt Q92731); concentration not given, Z-Z:Z-E:E-E 1:2:1, together with: [3H]-estradiol; reference: estradiol): 9.53 ± 2.4%

CC1(C)CCN(Cc2ccc(C(=O)NC[C@]3(O)CCCN(c4cc(NCc5ccccc5)ncn4)C3)c(O)c2)CC1
remaining activity (JAK1 (Homo sapiens, UniProt P23458); kinase activity, radiometric; 10 µM, together with: 10 µM ATP): 102%

Cc1ccc(NC(=O)CCC(NC(=O)CCC(C)C2CCC3C4C(O)CC5CC(O)CCC5(C)C4CCC23C)C(=O)O)c(C)n1 (stereo not drawn)
normalized Jmax/Kt (SLC10A2; transport efficiency, substrate, LC-MS/MS; ASBT-MDCK): 0.00554 µM⁻¹

O=c1c(/C=N/NC(=S)N/N=C/c2cc(Cl)ccc2O)coc2ccccc12
stability constant (SOD1 (Bovine, UniProt P00442); binding, fluorescence anisotropy; pH 7.4, 37 °C): 1.91e+07 M⁻¹

Cc1ncc(C[n+]2cccc(CCO)c2C)c(N)n1
ΔS (nicotinamide riboside transporter PnuT (Shewanella woodyi, UniProt B1KPL9); binding, isothermal titration calorimetry; purified detergent-solubilized protein; 25 °C): 41 ± 43 J/mol/K

Cc1cc(NC(=O)c2cccc(-n3cc(NC(=O)Nc4ccc(Cl)cc4)cn3)c2)ccn1
IC50 ratio (Mitogen-activated protein kinase 10, isoform alpha-1 (MAPK10, Homo sapiens, UniProt P53779, L144I); HTRF; reference: L144I mutant over wild type): 4.2 fold

CCN(CC)C(=O)c1ccc(O)c(OC)c1
contrast (Heat shock protein HSP 90-alpha, N-terminal domain (HSP90AA1, Homo sapiens, UniProt P07900); binding, ligand-observed NMR titration; ligand to protein ratio 272): 45%

OC[C@H]1O[C@@H](n2cnc3c(Nc4cccc(Br)c4)ncnc32)[C@H](O)[C@@H]1O
kon (ADORA3 (Homo sapiens, UniProt P0DMS8); kinetic radioligand binding; 10 °C, no GTP, together with: [3H]PSB-11): 88000 ± 14000 M⁻¹ s⁻¹

CN(C)CCCOc1ccc2cc(CN)ccc2c1
relative kcat/Km (Primary amine oxidase, liver isozyme (Bos taurus, UniProt Q29437); substrate, fluorescence; reference: benzylamine): 2700

CCC(=O)N1CCC=C(c2cc3c(Nc4cc5ncsc5cc4F)ncnc3s2)C1
remaining activity (RIPK1 (Homo sapiens, UniProt Q13546); enzyme activity; 1 µM; reference: untreated): 99 ± 1%

CC(C)[C@H](NC(=O)[C@@H]1CCCN1C(=O)[C@H](CCCCN)NC(=O)[C@H](Cc1ccccc1)NC(=O)[C@H](Cc1ccccc1)NC(=O)[C@H](CC(=O)O)NC(=O)[C@H](CCC(=O)O)NC(=O)[C@H](Cc1ccc(O)cc1)NC(=O)[C@H](CC(=O)O)NC(=O)[C@H](CCC(=O)O)NC(=O)[C@H](CC(=O)O)NC(=O)[C@H](CCC(=O)O)NC(=O)[C@@H](N)Cc1ccc(O)cc1)C(=O)N[C@H](C(=O)N[C@@H](CSSC[C@H](NC(=O)[C@@H](NC(=O)[C@@H](NC(=O)[C@@H]1CCCN1C(=O)[C@H](CCCCN)NC(=O)[C@H](Cc1ccccc1)NC(=O)[C@H](Cc1ccccc1)NC(=O)[C@H](CC(=O)O)NC(=O)[C@H](CCC(=O)O)NC(=O)[C@H](Cc1ccc(O)cc1)NC(=O)[C@H](CC(=O)O)NC(=O)[C@H](CCC(=O)O)NC(=O)[C@H](CC(=O)O)NC(=O)[C@H](CCC(=O)O)NC(=O)[C@@H](N)Cc1ccc(O)cc1)C(C)C)[C@@H](C)O)C(=O)N[C@@H](Cc1ccc(O)cc1)C(=O)N[C@@H](Cc1ccccc1)C(N)=O)C(=O)N[C@@H](Cc1ccc(O)cc1)C(=O)N[C@@H](Cc1ccccc1)C(N)=O)[C@@H](C)O
binding stoichiometry (C-C motif chemokine 8 (CCL8, Homo sapiens, UniProt P80075); isothermal titration calorimetry; concentration not given): 0.776 ± 0.024

N=C(N)NCCC[C@H](NC(=O)[C@H](CC(=O)O)NC(=O)[C@@H]1CSCC(=O)NCC(=O)N[C@@H](Cc2c[nH]cn2)C(=O)N[C@H](Cc2ccccc2)C(=O)N[C@@H](CCCNC(=N)N)C(=O)N[C@H](Cc2c[nH]c3ccccc23)C(=O)N1)C(=O)N[C@@H](Cc1ccccc1)C(=O)NCC(N)=O
activation (MC3R (Homo sapiens, UniProt P41968); cAMP accumulation, agonist; HEK293 expressing MC3R; 10 µM; reference: MT-II): 30%

CC(C=O)Cc1ccc(C(C)(C)C)cc1 (stereo not drawn)
fold increase (Olfactory receptor 2T4 (OR2T4, Homo sapiens, UniProt Q8NH00); GFP reporter, agonist; yeast olfactory receptor sensor; reference: DMSO): > 2 fold

CCC(=C(c1ccc(Cl)cc1)c1ccc(OCCN2CCCCCC2)cc1)c1ccccc1
fold activation (ESR1; reporter gene, agonist, yeast estrogen screen; 1 µM; reference: DMSO): 2.98 ± 0.44 fold

CSCC[C@H](NC(=O)[C@H](Cc1c[nH]c2ccccc12)NC(=O)[C@@H](NC(=O)[C@@H](NC(=O)[C@@H](NC(=O)[C@H](C)NC(=O)[C@@H](NC(=O)[C@H](C)NC(=O)[C@H](CCCCN)NC(=O)[C@H](CCCCN)NC(=O)[C@@H](NC(=O)[C@H](CC(N)=O)NC(=O)[C@H](CCC(=O)O)NC(=O)[C@@H](N)CCSC)C(C)C)[C@@H](C)O)[C@@H](C)O)[C@@H](C)O)[C@@H](C)O)C(=O)N[C@H](C(=O)N1CCC[C@H]1C(=O)N[C@H](C(=O)N[C@@H](CCCNC(=N)N)C(=O)N[C@@H](CCC(N)=O)C(=O)O)[C@@H](C)O)C(C)C
–TΔS° (Recombining binding protein suppressor of hairless (Rbpj, Mus musculus, UniProt P31266); isothermal titration calorimetry; pH 6.5, 25 °C): 5.9 ± 1.2 kcal/mol

O=c1[nH]c2ccccc2n1CCCCCN1CCN(c2ccc(F)cc2)CC1
Emax (HTR7 (Homo sapiens, UniProt P34969); ERK1/2 phosphorylation, agonist, Western blot; HEK293 expressing human 5-HT7R; 10 µM, 2 to 60 min; reference: control): 309 ± 34%

CCC(=C(c1ccc(O)cc1)c1ccc(OCCN(C)CCOCCOCCOCCOCCOC)cc1)c1ccccc1 (mixture of isomers)
relative binding affinity (ESR1; ligand, radioligand competition binding; concentration not given, together with: [3H]estradiol tracer; reference: estradiol): 78.1 ± 12%

CCCCOc1ccc(C(=O)OCCN2CC=CCC2)cc1
dissociation half-time (CHRM3 (Homo sapiens, UniProt P20309); recovery of [3H]NMS binding after washing; membranes; 100 µM): 0.2 ± 0.1 h

Nc1ncnc2c1ncn2[C@@H]1O[C@H](CO)[C@@H](O[C@H]2O[C@H](CO)[C@@H](OP(=O)(O)O)[C@H](OP(=O)(O)O)[C@H]2O)[C@H]1O
Hill coefficient (Inositol 1,4,5-trisphosphate-gated calcium channel ITPR1, N-terminal region (Itpr1, Rattus norvegicus, UniProt P29994, del318-332/R568Q); [3H]IP3 competition binding; N-terminal fragment R568Q; Tris-EDTA medium): 0.7 ± 0.1

C=C1C(=O)O[C@@H]2[C@H]3C(CO)=CC(=O)C3=C(C)C[C@H](O)[C@@H]12
Stern-Volmer constant (MAL12 (Saccharomyces cerevisiae S288c, UniProt P53341); fluorescence quenching; 310 K): 3890 L/mol

CNc1ccccc1C(=O)O[C@H]1C[C@H](n2cnc3c(N)ncnc32)O[C@@H]1COP(=O)(O)OP(=O)(O)O
donor-acceptor distance (Unconventional myosin-Va (Gallus gallus, UniProt Q02440, D297C/G292C/I296C/S293C/V295G); FRET; compound complex; 15 °C, together with: 4 mM EDTA): 20.9 Å

O=C(c1cc2c(s1)CCCCC2)N1CCC(n2c(=O)[nH]c3ccccc32)CC1
maximal current density (Trpc6 (Mus musculus, UniProt Q61143, K697R); ion current, agonist, whole-cell patch clamp; 100 µM, K697R mutant): 8.53 ± 2.36 pA/pF

CCCCCC(C)NCC(=O)O (stereo not drawn)
α-helix content (ALB; circular dichroism; 0.12 mM): 49.3%

CS(=O)(=O)CCC1NC(=O)C(Cc2ccco2)NC(=O)C(CC2CC2)NC(=O)C=CC(=O)NC(C(N)=O)CCNC1=O (stereo not drawn)
enrichment factor (MAPKAPK2 (Homo sapiens, UniProt P49137); DNA-templated library selection; one selection round): 0.65

COc1ccc(-c2ocnc2-c2cc(Br)c(OC)c(OC)c2)cc1OCCCC(=O)NO
enzyme activity (HDAC4 (Homo sapiens, UniProt P56524); inhibitor, fluorogenic; IC50 and twice IC50; reference: untreated): no effect

Cc1cnc2c(c1)NC(=O)c1cccnc1N2C1CC1
binding enthalpy (ALB; ITC; concentration not given, 298 K): -1.94 kcal/mol

O=C1c2ccc(O)cc2O[C@@H](c2ccc(O)cc2)[C@@H]1[C@@H]1C(=O)c2ccc(O)cc2O[C@H]1c1ccc(O)cc1
Vmax (PRXC1A (Armoracia rusticana, UniProt P00433); oxidation, substrate): 144 ± 4.1 µmol/min/mg

COC(C(=O)N1Cc2c(-c3ccc(C(=O)N4CCCc5ccccc54)cc3)cnn2CC1C(C)C)c1cnn(C)c1 (stereo not drawn)
Mfn2 ubiquitination (PRKN (Human, UniProt O60260); enzyme activity, in organello ubiquitination; 10 µM, together with: with or without CCCP): no effect

Nc1nc(SCc2ccc(Cl)cc2)nn1S(=O)(=O)c1ccc2c(c1)CCO2
fold activation (LYPLAL1 (Homo sapiens, UniProt Q5VWZ2); activator, gel-based ABPP FP-rhodamine; concentration not given; reference: DMSO): 2.3 fold

Excerpt of the above:
CCC(=C(c1ccc(O)cc1)c1ccc(OCCN(C)CCOCCOCCOCCOCCOC)cc1)c1ccccc1 (mixture of isomers)
relative binding affinity (ESR1; ligand, radioligand competition binding; concentration not given, together with: [3H]estradiol tracer; reference: estradiol): 78.1 ± 12%

CCCCOc1ccc(C(=O)OCCN2CC=CCC2)cc1
dissociation half-time (CHRM3 (Homo sapiens, UniProt P20309); recovery of [3H]NMS binding after washing; membranes; 100 µM): 0.2 ± 0.1 h

Nc1ncnc2c1ncn2[C@@H]1O[C@H](CO)[C@@H](O[C@H]2O[C@H](CO)[C@@H](OP(=O)(O)O)[C@H](OP(=O)(O)O)[C@H]2O)[C@H]1O
Hill coefficient (Inositol 1,4,5-trisphosphate-gated calcium channel ITPR1, N-terminal region (Itpr1, Rattus norvegicus, UniProt P29994, del318-332/R568Q); [3H]IP3 competition binding; N-terminal fragment R568Q; Tris-EDTA medium): 0.7 ± 0.1

C=C1C(=O)O[C@@H]2[C@H]3C(CO)=CC(=O)C3=C(C)C[C@H](O)[C@@H]12
Stern-Volmer constant (MAL12 (Saccharomyces cerevisiae S288c, UniProt P53341); fluorescence quenching; 310 K): 3890 L/mol
